Measured values from different studies.
A part holds a random share of what one study measured. Positions count from the first letter of the parent shown.

Series 1 — technique: DHFR PCA, deep sequencing; matrix: yeast; together with: (+)-ABA 0.032 µM; baseline: wild-type fitted maximum; reading: higher = stronger binding
Target: ABI1, truncated, D143A, DHFR fusion (Arabidopsis thaliana)
Notes: methotrexate growth selection, single substitutions
Starting sequence: PYL1, truncated, DHFR fusion (Arabidopsis thaliana); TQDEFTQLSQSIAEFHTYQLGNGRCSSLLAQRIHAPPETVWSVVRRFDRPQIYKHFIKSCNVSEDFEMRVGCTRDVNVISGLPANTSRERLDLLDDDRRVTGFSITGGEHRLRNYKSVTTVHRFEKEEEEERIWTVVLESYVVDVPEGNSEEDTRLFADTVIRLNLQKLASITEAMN; partner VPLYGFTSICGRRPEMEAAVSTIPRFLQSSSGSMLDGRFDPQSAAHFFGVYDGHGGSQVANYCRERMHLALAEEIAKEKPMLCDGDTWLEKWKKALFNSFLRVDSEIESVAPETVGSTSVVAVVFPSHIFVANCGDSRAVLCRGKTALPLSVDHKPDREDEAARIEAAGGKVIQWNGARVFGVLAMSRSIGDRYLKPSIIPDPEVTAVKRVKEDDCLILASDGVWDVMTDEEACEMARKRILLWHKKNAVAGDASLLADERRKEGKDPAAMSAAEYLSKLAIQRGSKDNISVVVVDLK
| Substitution | relative binding score [%] |
| --- | --- |
| Y141S | -1.06 |
| M176W | 3.36 |
| H110S | 43.1 |
| E4I | 29.1 |
| F66P | -3.53 |
| D48W | -2.36 |
| L93G | -0.138 |
| A158D | 4.31 |
| T120S | 64 |
| E125R | 28.9 |
| Y141R | -2.89 |
| L94C | -5.58 |
| K116S | 17 |
| R88C | 12.2 |
| R24K | 43.4 |
| E131V | 28.4 |
| K126G | 57.2 |
| N22W | 3.52 |
| I172T | 0.956 |
| C60G | -1.09 |
| S117F | -6.58 |

Series 2 — technique: aptamer microarray, sandwich; form: DNA with 2'F-ANA; matrix: in vitro; tested at: 200 nM; together with: Cy3 exosite-II aptamer, 400 nM; reading: higher = stronger binding; sequence: GGTTGGTGTGGTTGG
Target: Prothrombin, mature alpha-thrombin (F2, Homo sapiens, UniProt P00734)
Notes: whole 15-mer aptamer, many near background
| Modification | mean fluorescence intensity [a.u.] |
| --- | --- |
| 2'F-ANA at 1 4 5 6 7 10 12 | 64.6 |
| 2'F-ANA at 2 3 5 6 10 14 | 54.4 |
| 2'F-ANA at 1 8 10 12 14 | 49.8 |
| 2'F-ANA at 1 2 3 7 10 11 13 15 | 78.4 |
| 2'F-ANA at 4 5 6 8 10 13 15 | 46.1 |
| 2'F-ANA at 2 3 7 10 11 13 15 | 325 |
| 2'F-ANA at 2 4 6 8 | 393 |
| 2'F-ANA at 1 4 5 7 9 11 12 14 15 | 45.5 |
| 2'F-ANA at 2 3 4 7 8 9 10 13 14 15 | 182 |
| 2'F-ANA at 5 7 9 10 11 12 | 53.9 |
| 2'F-ANA at 2 5 6 7 10 11 12 14 | 49.6 |
| 2'F-ANA at 1 3 5 6 7 8 10 14 15 | 81.2 |
| 2'F-ANA at 1 4 5 11 12 | 80.2 |
| 2'F-ANA at 2 3 7 8 10 14 15 | 353 |
| 2'F-ANA at 5 6 7 9 10 12 14 15 | 44.6 |
| 2'F-ANA at 2 3 5 8 11 13 14 15 | 53.6 |
| 2'F-ANA at 1 2 4 5 7 12 14 | 98.9 |

Series 3 — technique: universal PBM; form: double-stranded DNA, one strand shown; matrix: in vitro; tested at: not given; reading: higher = stronger binding
Target: Sal-like protein 4, full length isoform B (SALL4, Homo sapiens, UniProt Q9UJQ4-2, residues 1-616)
Notes: 8-mer, flanks averaged, mean of replicates
Target sequence (chain): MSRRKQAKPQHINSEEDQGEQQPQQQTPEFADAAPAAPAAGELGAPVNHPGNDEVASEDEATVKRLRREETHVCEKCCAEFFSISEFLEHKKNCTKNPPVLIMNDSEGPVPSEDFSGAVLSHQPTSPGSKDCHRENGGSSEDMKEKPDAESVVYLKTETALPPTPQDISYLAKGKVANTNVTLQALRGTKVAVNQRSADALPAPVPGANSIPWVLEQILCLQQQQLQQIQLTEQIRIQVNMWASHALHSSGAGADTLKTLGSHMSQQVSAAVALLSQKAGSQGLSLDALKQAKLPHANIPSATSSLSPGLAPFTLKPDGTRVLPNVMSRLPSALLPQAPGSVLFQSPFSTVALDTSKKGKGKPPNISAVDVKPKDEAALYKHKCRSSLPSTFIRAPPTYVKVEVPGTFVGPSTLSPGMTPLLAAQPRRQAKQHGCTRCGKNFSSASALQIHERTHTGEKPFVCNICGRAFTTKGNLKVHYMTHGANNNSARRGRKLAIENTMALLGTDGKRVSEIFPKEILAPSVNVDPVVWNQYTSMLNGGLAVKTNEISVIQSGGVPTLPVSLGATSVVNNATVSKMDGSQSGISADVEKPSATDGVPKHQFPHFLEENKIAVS
| Sequence | E-score |
| --- | --- |
| CCCTACGC | -0.2 |
| CACACCAC | -0.026 |
| AAACCTTG | -0.0648 |
| ATCACCGG | -0.215 |
| CACGTCCA | -0.114 |
| CTGTGTTC | 0.00226 |
| AAAAATTC | 0.285 |
| ACGCGACA | -0.00935 |
| ACTTGTCC | 0.00582 |
| ATAAATTG | 0.395 |
| ATCCGTTA | 0.123 |
| GGCTAACC | -0.162 |
| TAGGATGA | 0.0227 |
| CATGCTGG | -0.138 |
| AAACGCTC | -0.059 |
| GAACGACA | -0.0833 |
| GGATGTAA | 0.12 |
| GATTCCGC | -0.131 |
| CCTGGACG | -0.335 |
| ACGACTTC | -0.0677 |
| CCGGGAGC | -0.418 |
| GCGGATAA | -0.139 |
| GGGTGTCA | -0.19 |
| GTCTTTTA | 0.02 |

Series 4 — technique: protein binding microarray; form: double-stranded DNA, one strand shown; matrix: in vitro; tested at: not given; baseline: not given; reading: higher = stronger binding
Target: Histone acetyltransferase KAT6A, winged helix 1, GST fusion (KAT6A, Homo sapiens, UniProt Q92794, residues 1-85)
Notes: 8-mer, flanks averaged, mean of 2 arrays, mostly near background
Residues (chain): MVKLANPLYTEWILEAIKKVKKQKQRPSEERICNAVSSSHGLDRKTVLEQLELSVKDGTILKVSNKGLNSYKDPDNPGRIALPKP
| Sequence | E-score |
| --- | --- |
| ATGGATAC | -0.188 |
| AGTGATAG | -0.235 |
| TCTGCGCA | 0.196 |
| AACACGGA | 0.292 |
| TACGAACA | -0.157 |
| ACTAACGC | 0.0595 |
| ACATGGGA | -0.114 |
| ACCGAGGG | -0.0584 |
| AATGCCCC | -0.0779 |
| ATATCAAA | -0.13 |
| TGAAGAAA | -0.0501 |
| GAACGATA | -0.0155 |
| CGTCACGC | 0.273 |
| GCCGCACA | 0.301 |
| GAGCGGAC | 0.232 |
| GCCTATTA | -0.0904 |

Series 5 — technique: EMSA with sequencing; form: double-stranded DNA, one strand shown; matrix: in vitro; tested at: 10 and 20 nM; baseline: negative control set to 0; reading: higher = stronger binding
Target: Hepatocyte nuclear factor 3-alpha (Foxa1, Mus musculus, UniProt P35582, residues 1-468, full length assumed)
UniProt P35582, sequence (whole entry, looked up): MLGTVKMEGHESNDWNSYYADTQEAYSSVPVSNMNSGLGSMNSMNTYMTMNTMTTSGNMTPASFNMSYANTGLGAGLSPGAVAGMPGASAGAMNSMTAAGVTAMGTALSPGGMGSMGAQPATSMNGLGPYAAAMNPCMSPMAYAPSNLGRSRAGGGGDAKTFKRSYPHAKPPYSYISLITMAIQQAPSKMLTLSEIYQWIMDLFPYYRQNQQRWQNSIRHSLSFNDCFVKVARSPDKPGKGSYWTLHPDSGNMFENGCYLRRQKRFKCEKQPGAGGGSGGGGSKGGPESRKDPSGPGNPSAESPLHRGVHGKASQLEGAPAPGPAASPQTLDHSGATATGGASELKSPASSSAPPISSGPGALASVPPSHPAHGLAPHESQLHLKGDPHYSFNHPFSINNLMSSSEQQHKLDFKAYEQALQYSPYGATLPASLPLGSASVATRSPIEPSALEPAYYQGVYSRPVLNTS
Notes: whole designed probe, mean of two concentrations, ends assumed
| Sequence | normalised bound fraction |
| --- | --- |
| GTGAGCGGTGCCCATTGATGGGGAACATCTTCCCCCTCTTCCTTGCCCCACCAGCTCACCTTCCCGGGTTATTTGCAGATAGGAAAATAAATAAAGCCGGCATTCGTTAACGCAGTTCACGCGCATACTGCTGTTTGCTCTGCATCTAACATGGTCCTTACGCGAGGCGTGGCTCCGGGAGAGCAAAGCACCGTGTCAGGCGCATGATCCGGGGTGGCCTTTCACTGGGATCGTGGGGAC | 0.365 ratio |
| GTGAGCGGTGCCCATTGATGGGGAACCAATGGGGTAGGTCAGCCCCAGTGAACTCTCAAATGACCACTGAAGGAGGAAGTGAGTGCAGAGTGTGATACCACTCACATCCCAGCCCAGACTGTTTGCTCAGCTGGGAGGTTCTTCCTGCAAGTGTTGCAATTCGAGATAACACCCCTTCTCATGGCTTCAGGCATCACCTATCTCCTCTAGGCTGCGCTCTTTCACTGGGATCGTGGGGAC | 0.196 ratio |
| GTGAGCGGTGCCCATTGATGGGGAACATCTTCCCCCTCTTCCTTGCCCCACCAGCTCACCTTCCCGGGTTGTTTACTTTGAGGAAAATAAATAAAGCCGGCATTCGTTAACCCTCTTCTGGCGCAAACTGCTGTTTACTTTGGATGAATCATGGTCCTTTGGCGACGCCAGGCTCCGGGAGAGCAAAGCACCGTGTCAGGGCCATGATCCGGGGTGGCCTTTCACTGGGATCGTGGGGAC | 0.445 ratio |
| GTGAGCGGTGCCCATTGATGGGGAACATCCACGAACCTGGCCCTGTCTGGTAACCACAGTGAACCATCGCAAGATACAGCACTATGTGTAATGACTCACCCCAGTTGGGCTGGAAATGTGTCAACACTGGCACATCCTCAGGGACACGGAAGTGTACTTGTTTTTGGAGAGGGACTAGACCTTCATCCTTGAGGTGAAGAAGATTTTCTCTCCAGGGTGTTTCACTGGGATCGTGGGGAC | 0.0559 ratio |

Series 6 — technique: RNA Bind-n-Seq; form: RNA; matrix: in vitro; tested at: 20 nM; notes: 6-mer, flanks averaged, single round; together with: 150 mM KCl; baseline: input library; reading: higher = stronger binding
Target: TAR DNA-binding protein 43, full length, His tag (TARDBP, Homo sapiens, UniProt Q13148, residues 1-414)
| Sequence | 6-mer enrichment (R) |
| --- | --- |
| AGCGAU | 0.757 |
| CCCGCG | 0.82 |
| GAACCU | 0.676 |
| CGAGAU | 0.774 |
| UCUGCU | 0.597 |
| GGAAGU | 1.56 |
| GCGAGU | 1.48 |
| AACUGU | 0.657 |
| GUCCAC | 0.69 |
| GUCCCG | 0.797 |
| AUCUGU | 0.605 |

Series 7 — target: CCNB3, cyclin fold, Cln2 fusion (human); technique: yeast growth competition, sequencing; matrix: yeast; notes: weak parent motif; baseline: not given; reading: higher = stronger binding
Starting sequence: MASTL docking peptide (human); PMIAKNLMCELDE
| Substitution | normalised enrichment score |
| --- | --- |
| PMIAKNLMCEDDE [L11D] | -0.114 |
| PMTAKNLMCELDE [I3T] | 0.0714 |
| PMIAKNYMCELDE [L7Y] | 0.199 |
| PMIAKNLMCELHE [D12H] | 0.119 |
| PMIAKNLMCESDE [L11S] | -0.109 |
| PMIAKHLMCELDE [N6H] | 0.0232 |
| PMIAINLMCELDE [K5I] | 0.328 |
| PMIAKNVMCELDE [L7V] | -0.372 |
| PMIAKNLMCILDE [E10I] | -0.14 |
| PMIAKDLMCELDE [N6D] | 0.0406 |
| PMCAKNLMCELDE [I3C] | -0.0237 |
| PMIAKNLMCECDE [L11C] | -0.157 |
| PFIAKNLMCELDE [M2F] | 0.0896 |
| PMIAKNLMCEEDE [L11E] | 0.263 |
| PMIAKNLMCELRE [D12R] | -0.0186 |
| PMIAKNLMCELQE [D12Q] | 0.361 |
| PMIAKNLKCELDE [M8K] | 0.0203 |
| PMVAKNLMCELDE [I3V] | -0.438 |
| PMIAKLLMCELDE [N6L] | -0.0792 |

Series 8 — target: DDIT3, bZIP domain (human); technique: DHFR protein complementation; matrix: yeast; baseline: wild-type JUN-FOS pair; reading: higher = stronger binding
Notes: single substitutions, most at no-binding floor
Starting sequence: JUN, bZIP domain (human); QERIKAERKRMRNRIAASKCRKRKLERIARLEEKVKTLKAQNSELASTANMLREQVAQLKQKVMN; partner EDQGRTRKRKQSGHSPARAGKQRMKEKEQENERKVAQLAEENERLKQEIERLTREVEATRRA
| Substitution | binding fitness |
| --- | --- |
| E32N | -0.383 natural log |
| K34A | 0.0394 natural log |
| A40N | -0.0516 natural log |
| K39Q | 0.084 natural log |
| V35E | -0.298 natural log |
| V56M | 0.0552 natural log |
| L59C | -0.148 natural log |
| V56S | -0.519 natural log |
| E32R | -0.182 natural log |
| Q55H | -0.0115 natural log |
| L45E | -1.4 natural log |
| A49K | -0.425 natural log |
| N42G | -0.859 natural log |
| S43R | 0.159 natural log |
| A57H | -0.0282 natural log |
| R30D | 0.0555 natural log |
| Q41H | -0.15 natural log |

Excerpt of the above (series 1):
| Substitution | relative binding score [%] |
| --- | --- |
| Y141R | -2.89 |
| K126G | 57.2 |
| I172T | 0.956 |
| F66P | -3.53 |
| M176W | 3.36 |
| L93G | -0.138 |
| K116S | 17 |
| Y141S | -1.06 |
| E4I | 29.1 |
| C60G | -1.09 |
| E125R | 28.9 |
| E131V | 28.4 |
| H110S | 43.1 |
| N22W | 3.52 |
| T120S | 64 |
| S117F | -6.58 |
| R24K | 43.4 |
| R88C | 12.2 |
| L94C | -5.58 |
